Measurements pooled from the literature.
Compare with care: the assays were run in different laboratories.
Target: Cannabinoid receptor 2 (CNR2, Homo sapiens, UniProt P34972)
UniProt P34972, sequence (whole entry, looked up): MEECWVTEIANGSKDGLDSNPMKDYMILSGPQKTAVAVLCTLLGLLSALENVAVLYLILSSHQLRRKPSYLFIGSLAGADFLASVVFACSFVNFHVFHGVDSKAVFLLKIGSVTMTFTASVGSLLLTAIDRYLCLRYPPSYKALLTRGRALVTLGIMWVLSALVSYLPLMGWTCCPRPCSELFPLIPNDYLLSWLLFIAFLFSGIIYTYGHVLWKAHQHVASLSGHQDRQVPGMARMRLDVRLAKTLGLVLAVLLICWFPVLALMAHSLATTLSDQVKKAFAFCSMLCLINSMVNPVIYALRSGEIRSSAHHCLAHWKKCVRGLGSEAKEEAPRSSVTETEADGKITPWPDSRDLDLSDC

SMILES	test	conditions	how to read	endpoint	value
CCOC(=O)[C@@](CC)(CCCSCCOCCOCCNc1ccc([N+](=O)[O-])c2nonc12)NC(=O)c1ccc(C2CC2)c(Cc2ccc(F)cc2)n1	cAMP level	added: forskolin	reference: CB1 over CB2 (human)	EC50 ratio	> 588
COC(=O)[C@@H](NC(=O)c1nn(Cc2ccc(F)cc2)c2cc(OCCCCNC(=N)N)ccc12)C(C)(C)C	GTPase		reference: FUB	Gi GTP turnover median	58%
CCOC(=O)[C@](CC)(CCCSCCOCCOCCNC(=O)c1ccc(-c2c3ccc(=N)c(S(=O)(=O)O)c-3oc3c(S(=O)(=O)O)c(N)ccc23)c(C(=O)O)c1)NC(=O)c1ccc(C2CC2)c(Cc2ccc(F)cc2)n1	cAMP level	added: forskolin	reference: CB1 over CB2 (human)	EC50 ratio	64
C/C(=N\OCCCN1CCCCC1)c1ccc(C(F)(F)F)cc1	antagonist, cAMP	10 µM		inhibition	27.6%
COc1ccc(F)cc1S(=O)(=O)Nc1cnc2c(c1)C(=O)NCCO2	ligand displacement, radioligand	10 µM		inhibition	7%
Cc1cc(-c2ccc3ccccc3c2)nnc1NCCN1CCN(C)CC1	antagonist	concentration not given		antagonist activity	negative
CCOC(=O)C(CC)(CC)NC(=O)c1ccc(C2CC2)c(Cc2ccc(F)cc2)n1	cAMP level	added: forskolin	reference: CB1 over CB2 (human)	EC50 ratio	6.3
CCc1nnc(-c2c(OC)cc(-c3cnc4cc(-c5cnn(C)c5)ccn34)cc2OC)o1	agonist, radioligand binding	10 µM	reference: control	specific binding	102%
Cc1cc(Nc2nc(C[C@@]3(C(=O)O)CCN(Cc4cccc(Cl)c4F)[C@H](C)C3)cc(C)c2F)[nH]n1	agonist	10 µM		activation	-1.25%
C[C@H](NCc1ccc(-c2ccc(C(F)(F)F)cc2)cc1)C(N)=O	radioligand binding	1 µM, added: 2.40 nM [3H]WIN-55,212-2		inhibition	11%
CS(C)(=O)=Nc1ccc(-c2ccc(-c3nc4cc(O[C@@H]5CO[C@H]6[C@@H]5OC[C@H]6O)[nH]c4cc3F)cc2)cc1	calcium signal, antagonist	10 µM		inhibition	4%

Excerpt of the above:
SMILES	test	conditions	how to read	endpoint	value
C/C(=N\OCCCN1CCCCC1)c1ccc(C(F)(F)F)cc1	antagonist, cAMP	10 µM		inhibition	27.6%
COc1ccc(F)cc1S(=O)(=O)Nc1cnc2c(c1)C(=O)NCCO2	ligand displacement, radioligand	10 µM		inhibition	7%
